Measurements collected from several papers.
Parts stem from different laboratories: compare values within a part only. Values joined by “and” are separate records of one study, mostly repeats; a detail may differ. Numbers after ± are the reported error.
UniProt P16257, sequence (whole entry, looked up): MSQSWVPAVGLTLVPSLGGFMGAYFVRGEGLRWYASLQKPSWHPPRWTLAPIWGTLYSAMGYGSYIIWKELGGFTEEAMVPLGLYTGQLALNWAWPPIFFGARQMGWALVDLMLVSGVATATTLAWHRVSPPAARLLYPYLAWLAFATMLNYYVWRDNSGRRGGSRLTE

Block 1
Target: Serine/threonine-protein kinase D3 (PRKD3, Homo sapiens, UniProt O94806)
UniProt O94806, sequence (whole entry, looked up): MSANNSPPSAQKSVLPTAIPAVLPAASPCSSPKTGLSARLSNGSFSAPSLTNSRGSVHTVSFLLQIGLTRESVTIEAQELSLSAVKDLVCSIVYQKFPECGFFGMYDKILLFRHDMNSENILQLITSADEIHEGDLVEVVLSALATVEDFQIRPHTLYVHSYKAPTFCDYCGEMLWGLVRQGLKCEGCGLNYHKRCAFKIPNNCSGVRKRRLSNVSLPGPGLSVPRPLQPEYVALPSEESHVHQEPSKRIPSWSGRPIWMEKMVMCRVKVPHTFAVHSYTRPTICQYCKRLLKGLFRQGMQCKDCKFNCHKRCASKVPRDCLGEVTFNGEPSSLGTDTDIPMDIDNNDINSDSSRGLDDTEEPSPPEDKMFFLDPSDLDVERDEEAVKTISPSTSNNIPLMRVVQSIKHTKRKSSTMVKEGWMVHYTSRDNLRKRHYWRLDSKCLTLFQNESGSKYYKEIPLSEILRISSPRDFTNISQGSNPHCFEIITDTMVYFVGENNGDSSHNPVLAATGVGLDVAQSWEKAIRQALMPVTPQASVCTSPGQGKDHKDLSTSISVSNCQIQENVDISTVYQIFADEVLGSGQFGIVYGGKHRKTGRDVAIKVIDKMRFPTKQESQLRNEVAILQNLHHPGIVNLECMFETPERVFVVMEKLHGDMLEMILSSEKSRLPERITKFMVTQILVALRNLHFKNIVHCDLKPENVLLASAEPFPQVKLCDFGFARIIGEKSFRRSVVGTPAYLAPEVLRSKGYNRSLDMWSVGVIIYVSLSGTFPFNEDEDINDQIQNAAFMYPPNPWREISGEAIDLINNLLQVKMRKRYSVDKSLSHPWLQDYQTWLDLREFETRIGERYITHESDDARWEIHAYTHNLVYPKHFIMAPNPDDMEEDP
Observed: enzyme activity
Action: inhibitor
Tested at: 0.5 µM
Baseline: control
For `O=c1cc(N2CCOCC2)oc2c(-c3ccccc3)cccc12`, the remaining activity was 92.5%.
With `COc1ccc(COc2ccc(Cc3cnc(N)nc3N)cc2OC)cc1` the remaining activity was 97.1%.
`O=C1Nc2ccc(Br)cc2/C1=C/c1cc2c([nH]1)CCCC2` gave a remaining activity of 90.3%.
`c1ccc2c(-c3ccncc3)c[nH]c2c1` gave a remaining activity of 90.7%.
For `O=C(c1cc2cc(O)ccc2[nH]1)c1cc2cc(O)ccc2[nH]1`, the remaining activity was 54.9%.
For `Oc1cccc(-c2nc(N3CCOCC3)c3oc4ncccc4c3n2)c1`, the remaining activity was 92.9%.
`COc1cccc(-c2cc(=O)c3ccccc3o2)c1N` has a remaining activity of 94.3%.
For `O=Nc1c(-c2c(O)[nH]c3cc(Br)ccc23)[nH]c2ccccc12`, the remaining activity was 87.8%.
For `CCCNC(=O)Nc1ccc(Oc2ncnc3cc(OC)c(OC)cc23)cc1Cl`, the remaining activity was 93.4%.
`CN(C)S(=O)(=O)c1ccc2c(c1)/C(=C/c1cc3c([nH]1)CCCC3)C(=O)N2` has a remaining activity of 90.4%.
`Cc1ccc(S(=O)(=O)/C=C/C#N)cc1` has a remaining activity of 96.1%.
With `COc1ccc2c(c1)c(C1=C(c3c[nH]c4ccccc34)C(=O)NC1=O)cn2CCCN(C)C` the remaining activity was 91.9%.
With `CCCCc1c(-c2ccc(OC)cc2)[nH]c2nccnc12` the remaining activity was 88.5%.
The remaining activity of `c1ccc(-c2n[nH]c3c2oc2ccccc23)cc1` is reported as 99.6%.
The remaining activity of `O=C1Cc2c([nH]c3ccc(Br)cc23)-c2ccccc2N1` is reported as 95.5%.
The remaining activity of `O=C1Nc2ccccc2/C1=C\c1c(Cl)[nH]c2ccccc12` is reported as 87.7%.
`O=C1NC(=O)c2c1c1c3ccccc3[nH]c1n1cncc21` gave a remaining activity of 47.7%.
The remaining activity of `Cc1cc(Nc2cc(N3CCN(C)CC3)nc(Sc3ccc(NC(=O)C4CC4)cc3)n2)[nH]n1` is reported as 86.6%.
`N#Cc1cnc2cnc(NCc3cccnc3)cc2c1Nc1ccc(F)c(Cl)c1` gave a remaining activity of 90.4%.

Block 2
Structure (SMILES): COc1cc(C(=O)N2CCC(N3CCN(C)CC3)CC2)ccc1Nc1ncc2c(n1)N(C)c1ccccc1C(=O)N2C
Observed: kinase activity
Aurora B; 10 µM — remaining activity: 28 ± 1%.
For SRC; 1 µM: remaining activity read 99 ± 4%.
For PKBa; 1 µM: remaining activity read 71 ± 1%.
It gave 93 ± 9% for remaining activity (IRAK4; 1 µM).
It gave 87 ± 8% for remaining activity (MARK4; 10 µM).
For JNK3; 10 µM: remaining activity read 109 ± 7%.
For TRKA; 10 µM: remaining activity read 32 ± 35%.
For PKCa; 1 µM: remaining activity read 95 ± 13%.
It gave 91 ± 6% for remaining activity (TTK; 10 µM).
The remaining activity was 96 ± 9% (p38a MAPK; 10 µM).

Block 3
SMILES: CC(C)n1cnc(-c2ccc(F)cc2)c1-c1ncc(C(=O)Nc2ccc(N3CCN(C)CC3)cc2)[nH]1
The “patients with adverse event” was 0% (Phase 2a trial, refers to: hepatic steatosis; human, idiopathic pulmonary fibrosis; all compound arms total, grade 2).
It gave 0% for “patients with adverse event” (Phase 2a trial, refers to: haemorrhoids; human, idiopathic pulmonary fibrosis; all compound arms, grade 4).
For Phase 2a trial, refers to: blood creatinine increased; human, idiopathic pulmonary fibrosis; all compound arms total, grade 2: “patients with adverse event” read 0%.
For Phase 2a trial, refers to: hypokalaemia; human, idiopathic pulmonary fibrosis; 60 mg once daily, grade 5: “patients with adverse event” read 0%.
It gave 0% for “patients with adverse event” (Phase 2a trial, refers to: hyperuricaemia; human, idiopathic pulmonary fibrosis; all compound arms total, grade 3).
For Phase 2a trial, refers to: hypercholesterolaemia; human, idiopathic pulmonary fibrosis; all compound arms total, grade 5: “patients with adverse event” read 0%.
Phase 2a trial, refers to: hypoalbuminaemia; human, idiopathic pulmonary fibrosis; 60 mg once daily, grade 5 — “patients with adverse event”: 0%.
Phase 2a trial, refers to: haemoptysis; human, idiopathic pulmonary fibrosis; all compound arms, grade 2 — “patients with adverse event”: 0%.
For refers to: abnormal liver function test, grade 3; idiopathic pulmonary fibrosis patients; oral, 60 mg once daily: “patients with adverse event” read 0%.
The “patients with adverse event” was 0% (Phase 2a trial, refers to: blood pressure increased; human, idiopathic pulmonary fibrosis; all compound arms total, grade 1).
It gave 0% for “patients with adverse event” (Phase 2a trial, refers to: blood lactate dehydrogenase increased; human, idiopathic pulmonary fibrosis; 30 mg once daily, grade 3).
For Phase 2a trial, refers to: hypokalaemia; human, idiopathic pulmonary fibrosis; 60 mg once daily, grade 3: “patients with adverse event” read 0%.
It gave 0% for “patients with adverse event” (Phase 2a trial, refers to: hepatobiliary disorders; human, idiopathic pulmonary fibrosis; 30 mg once daily, grade 5).
Phase 2a trial, refers to: hypoalbuminaemia; human, idiopathic pulmonary fibrosis; all compound arms total, grade 4 — “patients with adverse event”: 0%.
It gave 0% for “patients with adverse event” (Phase 2a trial, refers to: blood creatinine increased; human, idiopathic pulmonary fibrosis; all compound arms total, grade 4).
For Phase 2a trial, refers to: blood glucose increased; human, idiopathic pulmonary fibrosis; 60 mg once daily, grade 3: “patients with adverse event” read 0%.
For refers to: periorbital oedema, grade 1; idiopathic pulmonary fibrosis patients; oral, 30 mg once daily: “patients with adverse event” read 0%.

Block 4
SMILES: Cc1cc2c(C(N)=O)c(N)n(-c3c(C)ccc(O)c3C)c2nc1C
SRC: Proto-oncogene tyrosine-protein kinase Src (SRC, Homo sapiens, UniProt P12931)
For SRC; enzyme activity, inhibitor, TR-FRET; 13.72 nM: inhibition read 67.5%.
SRC; enzyme activity, inhibitor, TR-FRET; 0.1235 µM — inhibition: 92.4%.
For NCI-H1568; cell growth; 123.5 nM: inhibition read 14.5%.
For U-251 MG; cell growth; 370.37 nM: inhibition read 12.9%.
It gave -3.78% and -5.69% and -5.31% for inhibition (LN-229; cell proliferation; 123.5 nM).
It gave 45.7% for inhibition (HCC1569; automated capillary immunoblot, refers to: CDK1 phospho-Thr14; 37.04 nM).
It gave 96.4% for inhibition (SRC; kinase activity, inhibitor, HTRF; 0.3704 µM).
It gave 99.8% for inhibition (MKN-1; cell proliferation; 10000 nM).
U-251 MG; cell growth; 1111.11 nM — inhibition: 52.3%.
The inhibition was -0.05% and -3.01% and -2.99% (KLE; cell proliferation; 13.72 nM).

Block 5
Cell line: mouse MPNST tumor cells
Technique: high-content immunofluorescence imaging
Refers to: nuclear SOX9
Tested at: 10 µM
Time: 12 h
Notes: mean of 2 replicates
Baseline: DMSO control
Direction: higher = more nuclear SOX9
Under “nuclear SOX9 intensity”, `C=CC[C@@H]1/C=C(\C)C[C@H](C)C[C@H](OC)[C@H]2O[C@@](O)(C(=O)C(=O)N3CCCC[C@H]3C(=O)O[C@H](/C(C)=C/[C@@H]3CC[C@@H](O)[C@H](OC)C3)[C@H](C)[C@@H](O)CC1=O)[C@H](C)C[C@@H]2OC` is recorded as 116 % of DMSO.
Under “nuclear SOX9 intensity”, `CC(=O)NO` is recorded as 96.6 % of DMSO.
`Cc1cc(-n2c(=O)[nH]c(=O)n(C)c2=O)ccc1Oc1ccc(SC(F)(F)F)cc1` — result for “nuclear SOX9 intensity”: 97.9 % of DMSO.
`N[C@@H](Cc1ccc(O)c(O)c1)C(=O)O` — result for “nuclear SOX9 intensity”: 96.7 % of DMSO.
For `O=C(NO)c1ccc2[nH]c(=O)c(CCCc3ccccc3)nc2c1`, “nuclear SOX9 intensity” read 116 % of DMSO.
`COc1cc2c(cc1OC)CN(C(=O)[C@@H](NCc1ccncc1)C(C)(C)C)CC2`: “nuclear SOX9 intensity” 95.5 % of DMSO.
Under “nuclear SOX9 intensity”, `Cc1cc(=O)n(-c2ccccc2)n1C` is recorded as 92.5 % of DMSO.
Under “nuclear SOX9 intensity”, `NC(N)=NCC1COC2(CCCCC2)O1` (stereo not drawn) is recorded as 93.4 % of DMSO.
`NC(N)=NCCC[C@H](NC(=O)c1sccc1NS(=O)(=O)c1cccc2nsnc12)C(=O)O`: “nuclear SOX9 intensity” 85.9 % of DMSO.
`Cc1ccc(-c2ncc(Cl)cc2-c2ccc(S(C)(=O)=O)cc2)cn1`: “nuclear SOX9 intensity” 105 % of DMSO.
For `CCCN1CCCC[C@H]1C(=O)Nc1c(C)cccc1C`, “nuclear SOX9 intensity” read 98 % of DMSO.
`COc1ccc(C(=O)Nc2sc3c(c2C(N)=O)CCCC3)cc1OC`: “nuclear SOX9 intensity” 101 % of DMSO.
Under “nuclear SOX9 intensity”, `N#CC(=Cc1cn(-c2ccccc2)c2ccccc12)C(=O)O` is recorded as 83.5 % of DMSO.
For `O=c1[nH]cnc2c1ncn2[C@H]1CC[C@@H](CO)O1`, “nuclear SOX9 intensity” read 101 % of DMSO.
`COc1cc(OC)cc(C(=O)NNC(=O)Nc2cccc3ccccc23)c1`: “nuclear SOX9 intensity” 94.4 % of DMSO.

Single results of other studies
For `C[C@H](c1cccc(C#N)c1)n1cc(Cl)cc(C(N)=O)c1=N`, the inhibition was -7.87% (Translocator protein (Tspo, Rattus norvegicus, UniProt P16257); binding, radioligand binding; 10 µM).

Repeated from above (block 5):
Under “nuclear SOX9 intensity”, `C=CC[C@@H]1/C=C(\C)C[C@H](C)C[C@H](OC)[C@H]2O[C@@](O)(C(=O)C(=O)N3CCCC[C@H]3C(=O)O[C@H](/C(C)=C/[C@@H]3CC[C@@H](O)[C@H](OC)C3)[C@H](C)[C@@H](O)CC1=O)[C@H](C)C[C@@H]2OC` is recorded as 116 % of DMSO.
Under “nuclear SOX9 intensity”, `CC(=O)NO` is recorded as 96.6 % of DMSO.
`Cc1cc(-n2c(=O)[nH]c(=O)n(C)c2=O)ccc1Oc1ccc(SC(F)(F)F)cc1` — result for “nuclear SOX9 intensity”: 97.9 % of DMSO.
`N[C@@H](Cc1ccc(O)c(O)c1)C(=O)O` — result for “nuclear SOX9 intensity”: 96.7 % of DMSO.
For `O=C(NO)c1ccc2[nH]c(=O)c(CCCc3ccccc3)nc2c1`, “nuclear SOX9 intensity” read 116 % of DMSO.
`COc1cc2c(cc1OC)CN(C(=O)[C@@H](NCc1ccncc1)C(C)(C)C)CC2`: “nuclear SOX9 intensity” 95.5 % of DMSO.
Under “nuclear SOX9 intensity”, `Cc1cc(=O)n(-c2ccccc2)n1C` is recorded as 92.5 % of DMSO.
Under “nuclear SOX9 intensity”, `NC(N)=NCC1COC2(CCCCC2)O1` (stereo not drawn) is recorded as 93.4 % of DMSO.
`NC(N)=NCCC[C@H](NC(=O)c1sccc1NS(=O)(=O)c1cccc2nsnc12)C(=O)O`: “nuclear SOX9 intensity” 85.9 % of DMSO.
`Cc1ccc(-c2ncc(Cl)cc2-c2ccc(S(C)(=O)=O)cc2)cn1`: “nuclear SOX9 intensity” 105 % of DMSO.
For `CCCN1CCCC[C@H]1C(=O)Nc1c(C)cccc1C`, “nuclear SOX9 intensity” read 98 % of DMSO.
`COc1ccc(C(=O)Nc2sc3c(c2C(N)=O)CCCC3)cc1OC`: “nuclear SOX9 intensity” 101 % of DMSO.
